Measurements pooled from the literature.
pIC50: −log10 of the molar value.
Cell line: T47D

| Structure (SMILES) | test | conditions | endpoint | value |
| --- | --- | --- | --- | --- |
| Oc1cc2c3c(c1)COc1cc(O)cc(c1-3)CC2 | cell growth or viability, MTT | 48 h | pIC50 | 3.95 |
| CCCCCCCCCCn1c(-c2cccnc2)nc(-c2ccc(C)cc2)c1-c1ccc(C)cc1 | cell growth or viability, SRB | 48 h | pIC50 | 4.04 |
| O=C1N=C(N2N=C(c3cccs3)CC2c2ccc(F)cc2)S/C1=C\c1ccccc1 (centres unmarked) | cell growth or viability, MTT |  | pIC50 | 4.89 |
| Cc1ccc2nc(NC(=O)Cn3cc(COc4ccc(/C=N/Nc5cc([N+](=O)[O-])cc([N+](=O)[O-])c5)cc4)nn3)sc2c1 | cell growth or viability, MTT | 48 h | pIC50 | 4.11 |
| CCCCn1cc(C(=O)O)c(=O)c2cc(F)c(Nc3ccc(OC)cc3)c(N)c21 | cell growth or viability, SRB | 72 h | IC50 | 2.69 µg/mL |
| CCCCCCCCn1c(-c2cccnc2)nc(-c2ccccc2)c1-c1ccccc1 | cell growth or viability, SRB | 48 h | pIC50 | < 4.00 |
| COc1ccc(C2=NN(C3=NC(=O)/C(=C/c4ccccc4)S3)C(c3ccc(F)cc3)C2)cc1 (centres unmarked) | cell growth or viability, MTT |  | pIC50 | 4.11 |
| CCCCCCCCCCCCn1c(-c2cccnc2)nc(-c2ccc(C)cc2)c1-c1ccc(C)cc1 | cell growth or viability, SRB | 24 h | pIC50 | < 4.00 |
| CC(C)(C)c1ccc(C[n+]2cn(C3CCCC3)c3ccccc32)cc1 | cell growth or viability, MTT | 48 h | pIC50 | 4.52 |
| O=C1N=C(N2N=C(c3cccs3)CC2c2ccc(F)cc2)SC1=Cc1ccc(O)cc1 (centres unmarked) | cell growth or viability, MTT |  | pIC50 | 5.94 |
| Cc1cc(C=O)cc(C)c1Oc1cc(Nc2ccc(C#N)cc2)nc2cnccc12 |  | 48 h | pIC50 | < 3.90 |
| COc1ccc(/C=C2\SC(N3N=C(c4ccc(C)cc4)CC3c3ccc(F)cc3)=NC2=O)cc1 (centres unmarked) | cell growth or viability, MTT |  | pIC50 | 5.03 |
| CCCCCCCCCCCCCCn1c(-c2cccnc2)nc(-c2ccc(C)cc2)c1-c1ccc(C)cc1 | cell growth or viability, SRB | 24 h | pIC50 | < 4.00 |
| Cc1cc(/C=C/C#N)cc(C)c1Oc1cc(Nc2ccc(C#N)cn2)nc2ccncc12 |  | 48 h | pIC50 | < 3.92 |
| Cc1ccc(C(C)C)cc1.Oc1ccccc1C=NNC1=Nc2ccccc2-c2[nH]c3ccc(Br)cc3c2C1.[Cl-].[Cl][Os+] | cell growth or viability, MTT | 96 h | pIC50 | 5.46 |
| COc1ccc(C2=NN(C3=NC(=O)/C(=C/c4ccc(Cl)cc4)S3)C(c3ccc(F)cc3)C2)cc1 (centres unmarked) | cell growth or viability, MTT |  | pIC50 | 4.26 |
| c1ccc(-c2nc(-c3cccnc3)[nH]c2-c2ccccc2)cc1 | cell growth or viability, SRB | 24 h | pIC50 | < 4.00 |
| Cc1cc(C#N)cc(C)c1Oc1cc(Nc2ccc(C#N)cc2)nc2ccncc12 |  | 48 h | pIC50 | < 3.89 |
| CCCCn1c(-c2cccnc2)nc(-c2ccc(C)cc2)c1-c1ccc(C)cc1 | cell growth or viability, SRB | 48 h | pIC50 | < 4.00 |
| Cc1ccc(C2=NN(C3=NC(=O)/C(=C/c4ccccc4)S3)C(c3ccc(F)cc3)C2)cc1 (centres unmarked) | cell growth or viability, MTT |  | pIC50 | 4.77 |

A few entries again:
| Structure (SMILES) | test | conditions | endpoint | value |
| --- | --- | --- | --- | --- |
| CCCCCCCCCCCCn1c(-c2cccnc2)nc(-c2ccc(C)cc2)c1-c1ccc(C)cc1 | cell growth or viability, SRB | 24 h | pIC50 | < 4.00 |
| CC(C)(C)c1ccc(C[n+]2cn(C3CCCC3)c3ccccc32)cc1 | cell growth or viability, MTT | 48 h | pIC50 | 4.52 |
